{"data": "Assay results collected from several papers", "note": "Numbered parts are unrelated; each lists some results of a single study. Positions count from the first letter of the parent shown."}
{"data": "Set 1", "target": "TAR DNA-binding protein 43, full length, His tag (TARDBP, Homo sapiens, UniProt Q13148, residues 1-414)", "technique": "RNA Bind-n-Seq", "form": "RNA", "matrix": "in vitro", "concentration": "20 nM", "notes": "6-mer, flanks averaged, single round", "together with": "150 mM LiCl", "baseline": "input library", "reading": "higher = stronger binding"}
{"Strand": "AACCCG", "6-mer enrichment (R)": 0.885}
{"Strand": "CAAGCC", "6-mer enrichment (R)": 0.871}
{"Strand": "GCAGAC", "6-mer enrichment (R)": 0.871}
{"Strand": "CAAUCA", "6-mer enrichment (R)": 0.83}
{"Strand": "AGUUUC", "6-mer enrichment (R)": 0.934}
{"Strand": "AGAGGU", "6-mer enrichment (R)": 1.06}
{"Strand": "ACACGU", "6-mer enrichment (R)": 0.871}
{"Strand": "AAAGCU", "6-mer enrichment (R)": 0.824}
{"data": "Set 2", "Substitution": "V70T", "target": "ABI1, truncated, D143A, DHFR fusion (Arabidopsis thaliana)", "technique": "DHFR PCA, deep sequencing", "matrix": "yeast", "notes": "methotrexate growth selection, single substitutions", "baseline": "wild-type fitted maximum", "reading": "higher = stronger binding", "parent": "PYL1, truncated, DHFR fusion (Arabidopsis thaliana); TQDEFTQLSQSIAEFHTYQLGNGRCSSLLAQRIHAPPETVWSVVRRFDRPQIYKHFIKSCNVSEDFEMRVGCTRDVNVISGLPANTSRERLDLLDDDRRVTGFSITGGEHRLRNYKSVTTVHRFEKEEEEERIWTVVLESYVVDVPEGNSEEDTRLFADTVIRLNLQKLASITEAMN; partner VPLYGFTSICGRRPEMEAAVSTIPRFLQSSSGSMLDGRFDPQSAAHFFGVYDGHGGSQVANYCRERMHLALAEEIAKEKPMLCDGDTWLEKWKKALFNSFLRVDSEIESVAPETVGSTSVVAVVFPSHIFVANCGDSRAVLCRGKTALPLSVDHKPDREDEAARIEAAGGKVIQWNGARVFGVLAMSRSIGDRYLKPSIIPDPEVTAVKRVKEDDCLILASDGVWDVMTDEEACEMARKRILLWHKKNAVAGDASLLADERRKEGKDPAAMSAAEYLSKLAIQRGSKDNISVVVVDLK"}
{"setting": "together with: (+)-ABA 0.0091 µM", "relative binding score [%]": 3.26}
{"setting": "together with: (+)-ABA 0.032 µM", "relative binding score [%]": 0.884}
{"setting": "together with: (+)-ABA 0.11 µM", "relative binding score [%]": 2.66}
{"setting": "together with: (+)-ABA 1.4 µM", "relative binding score [%]": 18.6}
{"setting": "together with: (+)-ABA 2500 µM", "relative binding score [%]": 94.7}
{"setting": "together with: (+)-ABA 0.39 µM", "relative binding score [%]": 13.2}
{"data": "Set 3", "target": "PABPC1L2, full length, GST fusion (mouse, UniProt A0ABA7IW68)", "technique": "RNAcompete", "form": "RNA", "matrix": "in vitro", "concentration": "20 nM", "notes": "7-mer, probes averaged, single round", "baseline": "mean of 7-mers", "reading": "higher = stronger binding", "Target sequence (chain)": "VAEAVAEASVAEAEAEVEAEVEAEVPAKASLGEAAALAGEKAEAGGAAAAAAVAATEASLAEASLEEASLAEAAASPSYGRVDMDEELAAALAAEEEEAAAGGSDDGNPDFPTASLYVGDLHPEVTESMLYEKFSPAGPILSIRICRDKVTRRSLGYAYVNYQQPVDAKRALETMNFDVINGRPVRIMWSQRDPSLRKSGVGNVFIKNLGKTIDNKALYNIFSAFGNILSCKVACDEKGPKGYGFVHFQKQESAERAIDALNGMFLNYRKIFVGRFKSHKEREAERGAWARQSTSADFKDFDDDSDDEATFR"}
{"Strand": "GCUCGCG", "7-mer Z-score": -0.222}
{"Strand": "CAACGCA", "7-mer Z-score": -0.2}
{"Strand": "UCGAGCU", "7-mer Z-score": -0.246}
{"Strand": "UCGCUCC", "7-mer Z-score": -0.376}
{"Strand": "GCCCCCC", "7-mer Z-score": -0.556}
{"Strand": "GCAAUUU", "7-mer Z-score": -0.0736}
{"Strand": "CAGCAAC", "7-mer Z-score": -0.117}
{"Strand": "UGCGACU", "7-mer Z-score": -0.13}
{"data": "Single results of other studies", "parent": "PafA, mature enzyme, eGFP fusion (Elizabethkingia meningoseptica, UniProt Q9KJX5); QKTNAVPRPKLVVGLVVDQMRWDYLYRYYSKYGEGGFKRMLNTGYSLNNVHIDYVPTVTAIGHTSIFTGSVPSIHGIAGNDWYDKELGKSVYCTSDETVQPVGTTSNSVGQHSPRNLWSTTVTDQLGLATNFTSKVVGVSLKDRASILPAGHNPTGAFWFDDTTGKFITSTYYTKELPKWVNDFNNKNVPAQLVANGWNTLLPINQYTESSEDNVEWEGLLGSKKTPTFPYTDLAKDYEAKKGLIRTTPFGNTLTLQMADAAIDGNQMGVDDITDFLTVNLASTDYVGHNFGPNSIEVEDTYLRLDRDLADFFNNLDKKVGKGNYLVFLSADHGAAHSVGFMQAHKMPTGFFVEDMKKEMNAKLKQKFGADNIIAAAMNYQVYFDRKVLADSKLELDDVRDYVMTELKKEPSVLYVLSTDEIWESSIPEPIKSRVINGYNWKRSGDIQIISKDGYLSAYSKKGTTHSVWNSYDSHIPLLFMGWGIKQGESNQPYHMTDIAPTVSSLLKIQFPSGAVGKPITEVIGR"}
{"Substitution": "D53G", "target": "tungstate, free oxyanion", "test": "microfluidic competitive inhibition", "test system": "in vitro, cell-free expressed", "setting": "not given, derived from inhibition constants, unchanged parent 2230 nM", "scale": "lower = stronger binding", "endpoint": "oxyanion analog dissociation constant", "result": "2.02 µM"}
{"note": "Excerpt of the above (set 2):"}
{"setting": "together with: (+)-ABA 0.11 µM", "relative binding score [%]": 2.66}
